Published values from different studies.
Each numbered part is a random draw from the data of one study; scales do not carry over between parts. Changes are numbered by the printed parent chain.

Sample 1
Target: CCNB1, cyclin fold, Cln2 fusion (human)
Method: yeast growth competition, sequencing
Sample: yeast
Notes: strong parent motif
Reference: not given
Reading: higher = stronger binding
Starting sequence: RBL2 docking peptide (human); STTRRRLFVENDS
Variant	normalised enrichment score
STTRRRLFGENDS [V9G]	0.736
STTRRDLFVENDS [R6D]	0.0153
STTRSRLFVENDS [R5S]	0.255
STTRRRLFNENDS [V9N]	1.38
STTRERLFVENDS [R5E]	0.243
STTRRRLFVENES [D12E]	0.345
STTRKRLFVENDS [R5K]	1.31
STTRRRRFVENDS [L7R]	1.1

Sample 2
Target: CEBPD, bZIP domain (human)
Method: DHFR protein complementation
Sample: yeast
Notes: single substitutions, most at no-binding floor
Reference: wild-type JUN-FOS pair
Reading: higher = stronger binding
Starting sequence: JUN, bZIP domain (human); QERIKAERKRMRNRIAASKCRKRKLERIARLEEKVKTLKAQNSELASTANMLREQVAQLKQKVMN; partner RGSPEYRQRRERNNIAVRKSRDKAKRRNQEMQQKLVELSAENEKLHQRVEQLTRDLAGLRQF
Variant	binding fitness [natural log]
A46Q	-1.42
L38I	-1.18
E44T	-1.37
V35S	-1.55
E32R	-1.3
N42T	-1.39
L52I	-1.25
L31T	-1.4

Sample 3
Target: Histone acetyltransferase KAT6A, winged helix 1, GST fusion (KAT6A, Homo sapiens, UniProt Q92794, residues 1-85)
Method: protein binding microarray
Form: double-stranded DNA, one strand shown
Sample: in vitro
Concentration: not given
Notes: 8-mer, flanks averaged, mean of 2 arrays, mostly near background
Reference: not given
Reading: higher = stronger binding
Target sequence (chain): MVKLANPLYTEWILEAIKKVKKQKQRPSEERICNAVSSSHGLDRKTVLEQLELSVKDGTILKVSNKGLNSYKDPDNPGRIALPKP
Sequence	E-score
CGCGGGGA	0.378
AAGTTCAT	-0.191
TATAAACA	-0.244
ATATCGTA	-0.0687
ACGCGTGG	0.293
TCTCGACA	-0.174
CGTAGAAC	-0.0178
ACCTTGCA	-0.131

Further values, each from its own experiment
Compound	cell line	setting	measurement	value
CCN(CC)CCCC(C)Nc1ccnc2cc(Cl)ccc12 (stereo not shown)	A-375	100 µM, 18 h	viability	92.7%

A few entries again (sample 1):
Variant	normalised enrichment score
STTRERLFVENDS [R5E]	0.243
STTRRRLFGENDS [V9G]	0.736
STTRRRLFNENDS [V9N]	1.38
